Measured values pooled from the literature.
Each numbered part is a random draw from the data of one study; scales do not carry over between parts. Changes are numbered by the printed parent chain.

Block 1
Target: Sal-like protein 4, full length isoform B (SALL4, Homo sapiens, UniProt Q9UJQ4-2, residues 1-616)
Method: universal PBM
Molecule type: double-stranded DNA, one strand shown
Medium: in vitro
Tested at: not given
Notes: 8-mer, flanks averaged, mean of replicates
Direction: higher = stronger binding
Endpoint: E-score
Residues (chain): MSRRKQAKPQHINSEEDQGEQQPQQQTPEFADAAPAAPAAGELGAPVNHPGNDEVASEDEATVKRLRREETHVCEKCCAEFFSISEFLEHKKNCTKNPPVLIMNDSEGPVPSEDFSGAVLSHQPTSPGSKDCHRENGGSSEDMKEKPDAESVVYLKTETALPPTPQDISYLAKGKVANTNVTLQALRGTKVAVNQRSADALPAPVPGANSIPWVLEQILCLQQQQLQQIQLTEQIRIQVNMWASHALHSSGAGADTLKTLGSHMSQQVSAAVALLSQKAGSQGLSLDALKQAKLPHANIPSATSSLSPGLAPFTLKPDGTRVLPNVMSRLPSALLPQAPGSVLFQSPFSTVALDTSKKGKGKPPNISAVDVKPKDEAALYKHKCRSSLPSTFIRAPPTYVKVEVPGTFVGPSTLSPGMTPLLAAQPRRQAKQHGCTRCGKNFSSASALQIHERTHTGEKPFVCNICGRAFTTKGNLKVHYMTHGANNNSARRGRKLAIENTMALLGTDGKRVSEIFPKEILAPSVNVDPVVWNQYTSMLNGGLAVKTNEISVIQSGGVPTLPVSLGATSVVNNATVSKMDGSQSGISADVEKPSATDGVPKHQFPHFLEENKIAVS
GCCCGAAA: -0.0932
GTTAAAAA: 0.228
ACGTTTTC: 0.174
ATTACGAC: 0.168
AGCATAAC: 0.19
AGCCCAGG: -0.34
CGTAGCCC: -0.307
ACTAGTCT: 0.0703
ATACACGC: 0.0742
ATACCGGG: -0.0424
ACGACGAC: -0.0775
CCGATATA: 0.259
ACGGATGA: -0.0575
ACCCCAAA: -0.237
ATGCGGGA: 0.0202
CCACCCGG: -0.297
CACATTGG: 0.013
AGAATACT: 0.149
AAGTGACC: -0.176

Block 2
Target: CCNA1, cyclin fold, Cln2 fusion (human)
Method: yeast growth competition, sequencing
Medium: yeast
Notes: weak parent motif
Reference: not given
Direction: higher = stronger binding
Endpoint: normalised enrichment score
Parent: ORC1 docking peptide (human); PRARKRLELGNLG
PRARKREELGNLG [L7E]: 0.266
PRARKRLELGNLK [G13K]: 0.337
PRARKRLNLGNLG [E8N]: 0.486
PRLRKRLELGNLG [A3L]: -0.17
PRYRKRLELGNLG [A3Y]: 0.792
PWARKRLELGNLG [R2W]: 0.454
PRARKRAELGNLG [L7A]: 0.431
TRARKRLELGNLG [P1T]: 0.301
PKARKRLELGNLG [R2K]: 0.504
PRARKMLELGNLG [R6M]: 0.39
PRARARAELGNLG [K5A L7A]: 0.455
PRARKRLELRNLG [G10R]: 0.199
PRARKRLELGNLF [G13F]: 0.0266
PRARKRLELGALG [N11A]: 0.297
PRARKRLELNNLG [G10N]: 0.319
ARARKRLELGNLG [P1A]: 0.692
PRARKRLELANLG [G10A]: 0.308
PRPRKRLELGNLG [A3P]: 0.256
PRARKRFELGNLG [L7F]: 0.0144
PAARKRLELGNLG [R2A]: 0.202
PRARKRLELGGLG [N11G]: 0.758
PRARKRLECGNLG [L9C]: 0.475
PRAGKRLELGNLG [R4G]: 0.345
PRAYKRLELGNLG [R4Y]: 0.436

Block 3
Target: Transcriptional repressor CTCF (CTCF, Homo sapiens, UniProt P49711, residues 1-727, full length assumed)
Method: protein-binding microarray
Molecule type: double-stranded DNA, one strand shown
Medium: in vitro
Tested at: not given
Notes: k-mer, scored over probes, only values ≥0.25
Direction: higher = stronger binding
Endpoint: E-score
Construct (chain): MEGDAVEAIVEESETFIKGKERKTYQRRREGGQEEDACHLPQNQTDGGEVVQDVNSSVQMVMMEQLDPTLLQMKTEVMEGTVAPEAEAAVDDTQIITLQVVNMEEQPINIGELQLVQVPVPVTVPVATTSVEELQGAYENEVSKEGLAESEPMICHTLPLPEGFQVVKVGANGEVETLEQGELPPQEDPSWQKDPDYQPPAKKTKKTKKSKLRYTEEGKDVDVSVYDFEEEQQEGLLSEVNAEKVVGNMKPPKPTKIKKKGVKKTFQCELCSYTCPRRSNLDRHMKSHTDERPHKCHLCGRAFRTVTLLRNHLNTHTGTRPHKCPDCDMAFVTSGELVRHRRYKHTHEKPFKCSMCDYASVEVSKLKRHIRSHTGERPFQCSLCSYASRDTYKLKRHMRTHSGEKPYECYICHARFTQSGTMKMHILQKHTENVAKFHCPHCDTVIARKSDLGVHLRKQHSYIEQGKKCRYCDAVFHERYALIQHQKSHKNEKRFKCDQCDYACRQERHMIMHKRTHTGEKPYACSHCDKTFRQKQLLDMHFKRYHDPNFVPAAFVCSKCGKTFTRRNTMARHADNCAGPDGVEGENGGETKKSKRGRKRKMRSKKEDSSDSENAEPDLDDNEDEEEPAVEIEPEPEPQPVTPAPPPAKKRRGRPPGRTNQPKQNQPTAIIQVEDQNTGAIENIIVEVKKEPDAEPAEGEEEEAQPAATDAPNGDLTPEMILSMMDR
CCGCAAGG: 0.277
ATTATGTG: 0.285
ATTTTGCG: 0.313
GCGCATCC: 0.34
AATTTTCC: 0.259
AGGGGGGA: 0.25
ACATACAA: 0.338
CATTTGTA: 0.264
CATTACTA: 0.354
TGCAAAAA: 0.268
AAACAAAT: 0.278
ACAAAAAT: 0.293
ATAGCGCA: 0.27
ATCACCAT: 0.258

Block 4
Target: ABI1, truncated, D143A, DHFR fusion (Arabidopsis thaliana)
Method: DHFR PCA, deep sequencing
Medium: yeast
Notes: methotrexate growth selection, single substitutions
With: (+)-ABA 200 µM
Reference: wild-type fitted maximum
Direction: higher = stronger binding
Endpoint: relative binding score
Parent: PYL1, truncated, DHFR fusion (Arabidopsis thaliana); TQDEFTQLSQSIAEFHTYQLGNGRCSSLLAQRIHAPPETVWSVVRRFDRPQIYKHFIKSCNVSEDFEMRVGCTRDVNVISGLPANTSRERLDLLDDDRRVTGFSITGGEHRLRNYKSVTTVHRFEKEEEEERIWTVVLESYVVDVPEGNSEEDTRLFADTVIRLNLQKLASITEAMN
V136I: 110%
S150I: 70.9%
K168G: 91.4%
N61Y: 97%
S150Y: 58.7%
S42Y: 76.1%
E109G: 88.4%
E4M: 93.8%
A175C: 94.9%
D75G: 85.3%
L20A: 108%
S104F: 38.5%
T17F: 72.3%
F157Y: 85.8%

Block 5
Target: Prothrombin, mature alpha-thrombin (F2, Homo sapiens, UniProt P00734)
Method: aptamer microarray, sandwich
Molecule type: DNA with 2'F-ANA
Medium: in vitro
Tested at: 200 nM
Notes: whole 15-mer aptamer, many near background
With: Cy3 exosite-II aptamer, 400 nM
Direction: higher = stronger binding
Endpoint: mean fluorescence intensity
Sequence: GGTTGGTGTGGTTGG
2'F-ANA at 1 6 9 11 12: 268 a.u.
2'F-ANA at 2 3 5 7 9 12 14: 100 a.u.
2'F-ANA at 1 4 8 10 11 12 13: 50.9 a.u.
2'F-ANA at 5 7 10 11 15: 48.2 a.u.
2'F-ANA at 3 6 7 11 13 14 15: 518 a.u.
2'F-ANA at 2 4 6 8 9 12 13: 317 a.u.
2'F-ANA at 3 4 5 7 8 15: 116 a.u.
2'F-ANA at 1 3 5 6 13 15: 49.7 a.u.
2'F-ANA at 4 5 7 11 14 15: 62.1 a.u.
2'F-ANA at 4 7 8 9 10 11 12: 129 a.u.
2'F-ANA at 1 2 4 5 6 7 8 10 11 14: 48.4 a.u.
2'F-ANA at 1 3 9 10 11 12 13 14 15: 76.3 a.u.
2'F-ANA at 1 2 3 4 5 8 11 12 13 15: 85.8 a.u.
2'F-ANA at 1 2 3 9 11 13 14 15: 66.7 a.u.
2'F-ANA at 1 2 3 4 5 7 8 9 10 11 13 14 15: 55.2 a.u.
2'F-ANA at 1 4 5 6 7 8 9 12: 116 a.u.
2'F-ANA at 1 2 5 7 9 10 11 12 14 15: 46.8 a.u.
2'F-ANA at 3 5 6 8 9 11 12 13: 644 a.u.
2'F-ANA at 1 4 6 8 9 10 11 15: 58.9 a.u.
2'F-ANA at 1 6 9 13: 107 a.u.
2'F-ANA at 1 9 10 12 13 14 15: 46.7 a.u.
2'F-ANA at 1 2 3 6 7 11 14: 71 a.u.
2'F-ANA at 1 2 3 4 5 6 9 10 11 12 15: 48.5 a.u.

Block 6
Target: Fragile X messenger ribonucleoprotein 1, C-terminal low-complexity region (Fmr1, Mus musculus, UniProt P35922)
Method: RNA Bind-n-Seq
Molecule type: RNA
Medium: in vitro
Tested at: 200 nM
Notes: whole 134-nt RNA, ends assumed
With: 150 mM LiCl
Reference: input library
Direction: higher = stronger binding
Endpoint: log2 enrichment
Library: 7-deaza-guanosine replaces G
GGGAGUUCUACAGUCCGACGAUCUUACGAUUAUAUCACCCGGACACACAUCAUGCUUAAGAUUCAACUGGGAGCAUACCAGGGAUGCUCUCUAACGUAAUCAAGGGAAGGUUCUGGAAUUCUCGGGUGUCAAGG: -1.42
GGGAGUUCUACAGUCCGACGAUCCACAGACAACACGCACCCACACAGACACAGAGGGAAGGGGAUGGGAUGGGGACAGGGUGCACAGCAGGGCGGGGUAGGACCCCAGCCCCUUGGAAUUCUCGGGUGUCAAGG: -0.628
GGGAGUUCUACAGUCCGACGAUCAAGUCCUGUGCUACACAUCGUAUGUACCGAAUCGGGUUUUGGUUUUGGGGUUUUGGGAAAGUAUUAUGUUACGCCGUUCGGAUCUGCACUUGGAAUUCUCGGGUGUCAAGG: -1.49
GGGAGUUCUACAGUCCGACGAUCUGGCCCUGGUGGCAUGCGGGGAGGAAGAGGUGGCCUCAUGGAUCGUGGUGGUCCCCGUGGAAUGUUCAGAGGUGGCCGUGGUGGAGACAGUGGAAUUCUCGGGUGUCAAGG: -0.238
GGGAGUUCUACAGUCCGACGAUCCAAGUCCUGUGCUACACAUCGUAUGUACCGAAUCGGGCCCCGGCCCCGGGCCCCGGAAAGUAUUAUGUUACGCCGUUCGGAUCUGCACUUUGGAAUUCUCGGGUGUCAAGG: -2.63
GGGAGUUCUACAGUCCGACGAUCUGGGAGGUGGAUUUUGUUUAUUUUUUUAGCUCAUUUCCAGGGGUGGGAAUUUAUUUUUAAUAUGUGUCAUGAAUAAAGUUGUUUUUGAAAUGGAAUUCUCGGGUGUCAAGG: -0.0224
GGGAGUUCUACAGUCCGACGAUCUAACUUUAGAGGAGGAUCUGAUGGAUAUGGCAGUGGACGUGGAUUUGGGGAUGGCUAUAAUGGGUAUGGAGGAGGUCCUGGAGGUGGCAAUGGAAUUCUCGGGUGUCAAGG: 0.737
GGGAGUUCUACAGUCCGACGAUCCACAGACAACACGCACCCACACAGACACAGAGGGAAGGGGUUGGGAUGGGGACAGGGUGCACAGCAGGGCCGGGUAGGACCCCAGCCCCUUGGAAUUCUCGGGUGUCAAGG: 0.294
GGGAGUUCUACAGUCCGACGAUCCUGUGCUACACAUCGUAUGUACCGAAUCGGGGCCCCCCCGGGGCCCCCCCGGCCCCCCCGGAAAGUAUUAUGUUACGCCGUUCGGAUCUGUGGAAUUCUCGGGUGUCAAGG: 0.173
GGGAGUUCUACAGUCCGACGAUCCUCAAGUCCUGUGCUACACAUCGUAUGUACCGAAUCGGCCGGCCGGGGCCGGGGAAAGUAUUAUGUUACGCCGUUCGGAUCUGCACUUCCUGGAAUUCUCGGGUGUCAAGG: -0.339
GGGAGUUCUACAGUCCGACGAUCAAGUCCUGUGCUACACAUCGUAUGUACCGAAUCGGGGUUUGGGUUUGGGGUUUGGGAAAGUAUUAUGUUACGCCGUUCGGAUCUGCACUUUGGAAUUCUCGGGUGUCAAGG: -1.53

Repeated from above (block 1):
ATGCGGGA: 0.0202
ACCCCAAA: -0.237
ACTAGTCT: 0.0703
CGTAGCCC: -0.307
CCGATATA: 0.259
AGCATAAC: 0.19
ACGGATGA: -0.0575
GTTAAAAA: 0.228
ATTACGAC: 0.168
ACGTTTTC: 0.174
ACGACGAC: -0.0775
